{"data": "Results of several laboratories", "APP Aβ42 aggregates": "Amyloid-beta precursor protein, Aβ42 aggregates (APP, Homo sapiens, UniProt P05067)", "APP": "Amyloid-beta precursor protein (APP, Homo sapiens, UniProt P05067)", "APP monomer": "Amyloid-beta precursor protein, monomer (APP, Homo sapiens, UniProt P05067)", "note": "Lines come from different studies, so protocols differ. ± gives the spread as reported.", "UniProt P05067, sequence (whole entry, looked up)": "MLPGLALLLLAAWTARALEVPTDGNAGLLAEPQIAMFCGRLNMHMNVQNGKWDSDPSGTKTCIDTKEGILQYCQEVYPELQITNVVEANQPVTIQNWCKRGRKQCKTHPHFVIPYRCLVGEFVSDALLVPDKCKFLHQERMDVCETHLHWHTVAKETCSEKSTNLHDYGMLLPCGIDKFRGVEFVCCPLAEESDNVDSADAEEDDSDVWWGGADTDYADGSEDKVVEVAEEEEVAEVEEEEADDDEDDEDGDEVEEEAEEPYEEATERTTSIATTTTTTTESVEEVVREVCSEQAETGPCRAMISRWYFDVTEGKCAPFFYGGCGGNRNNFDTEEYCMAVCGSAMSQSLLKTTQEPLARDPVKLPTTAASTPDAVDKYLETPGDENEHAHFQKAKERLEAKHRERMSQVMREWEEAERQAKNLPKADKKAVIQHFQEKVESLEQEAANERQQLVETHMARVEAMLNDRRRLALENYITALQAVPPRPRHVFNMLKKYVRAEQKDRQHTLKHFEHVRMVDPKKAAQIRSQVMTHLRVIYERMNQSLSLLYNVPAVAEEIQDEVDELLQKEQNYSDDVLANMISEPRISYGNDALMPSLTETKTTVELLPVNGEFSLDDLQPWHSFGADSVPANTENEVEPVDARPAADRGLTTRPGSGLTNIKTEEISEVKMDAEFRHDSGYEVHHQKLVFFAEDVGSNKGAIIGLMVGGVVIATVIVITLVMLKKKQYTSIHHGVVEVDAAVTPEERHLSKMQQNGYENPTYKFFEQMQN"}
{"SMILES": "CCCCN(CCCC)c1ccc(C=C(C#N)C(=O)OCCOCCOCCOC)cc1", "target": "APP Aβ42 aggregates", "assay": "binding, fluorescence spectroscopy", "system": "PBS", "setting": "4 µM, added: pre-aggregated Aβ(1-42) 5 µM", "endpoint": "excitation maximum", "result": "440 nm"}
{"SMILES": "CC(C)C[C@@H]1NC(=O)CN(C)C(=O)CCCC(=O)NCCCC[C@@H](C(=O)N[C@@H](CCCNC(=N)N)C(N)=O)NC(=O)[C@H](Cc2ccccc2)NC(=O)[C@H](Cc2ccccc2)NC(=O)c2ccccc2NC1=O", "target": "Amyloid-beta precursor protein, Aβ40 fibrils (APP, Homo sapiens, UniProt P05067)", "assay": "ThT fluorescence", "setting": "2-fold molar excess, pH 7.4, 37 °C, added: preformed Aβ1-40 fibrils 40 µM", "endpoint": "amyloid fibril disruption", "result": "74%"}
{"SMILES": "CC[C@H](C)[C@H](NC(=O)[C@@H](NC(=O)[C@@H](N)C(C)C)C(C)C)C(=O)NCC(N)=O", "target": "APP", "assay": "amyloid aggregation, inhibitor, fluorescence", "setting": "10 µM, 24 h", "endpoint": "inhibition", "result": "5.4%"}
{"SMILES": "COc1cc(OC)c2c(O)c3c(=O)cc(C)oc3c(-c3c(OC)cc4cc5c(c(O)c4c3OC)C(=O)CC(C)(O)O5)c2c1 (stereo not shown)", "target": "APP", "assay": "thioflavin-T fluorescence", "setting": "50 µM", "how to read": "relative to: untreated", "endpoint": "Aβ aggregation", "result": "41.9 ± 10.4%"}
{"SMILES": "CC[C@H](C)[C@H](NC(=O)[C@@H](NC(=O)[C@@H](NC(=O)[C@@H](N)C(C)C)C(C)C)[C@@H](C)CC)C(N)=O", "target": "APP", "assay": "amyloid aggregation, inhibitor, fluorescence", "setting": "4 µM, 24 h", "endpoint": "inhibition", "result": "0%"}
{"SMILES": "NC(=O)CN(Cc1ccccc1)C(=O)CN(CCOc1cc(-c2ccccn2)nc(-c2ccccn2)c1)C(=O)CNCc1ccccn1", "target": "Amyloid-beta precursor protein, Cu-bound amyloid-beta 1-40 (APP, Homo sapiens, UniProt P05067)", "assay": "ROS production, inhibitor", "setting": "10 µM, 30 min, pH 7.4, added: Aβ1-16 10 µM, Cu2+ 9 µM", "endpoint": "ascorbate consumption", "result": "71%"}
{"SMILES": "CN(C)c1ccc(C=C(C#N)C(=O)OCC(O)CO)cc1 (stereo not shown)", "target": "APP Aβ42 aggregates", "assay": "binding, fluorescence spectroscopy", "system": "PBS", "setting": "4 µM, added: pre-aggregated Aβ(1-42) 5 µM", "endpoint": "excitation maximum", "result": "434 nm"}
{"SMILES": "CC[C@H](C)[C@H](NC(=O)[C@@H](Cc1ccccc1)NC(=O)[C@@H](N)C(C)C)C(=O)N[C@@H](C)C(N)=O", "target": "APP", "assay": "amyloid aggregation, inhibitor, fluorescence", "setting": "10 µM, 24 h", "endpoint": "inhibition", "result": "62.5%"}
{"SMILES": "CC(C)C[C@@H]1NC(=O)CN(C)C(=O)CCCCC(=O)NCCCC[C@@H](C(=O)N[C@@H](CCCNC(=N)N)C(N)=O)NC(=O)[C@H](Cc2ccccc2)NC(=O)[C@H](Cc2ccccc2)NC(=O)[C@H](C(C)C)NC1=O", "target": "APP monomer", "assay": "amyloid aggregation, inhibitor, fluorescence", "setting": "40 µM, pH 7.4", "endpoint": "inhibition", "result": "70%"}
{"SMILES": "COCCOCCOCCOC(=O)/C(C#N)=C/c1ccc2cc(N3CCOCC3)ccc2c1", "target": "APP Aβ42 aggregates", "assay": "fluorescence", "setting": "added: aggregated Abeta42 5 µM", "endpoint": "emission maximum", "result": "525 nm"}
{"SMILES": "[123I]c1ccc2nc(-c3ccc(-n4ccnn4)nc3)cn2c1", "target": "Amyloid-beta precursor protein, amyloid-beta (APP, Homo sapiens, UniProt P05067)", "assay": "SPECT", "system": "healthy controls, posterior cingulate", "setting": "120 to 210 min", "how to read": "relative to: cerebellum", "endpoint": "SUVR", "result": "0.84 ± 0.04"}
{"SMILES": "CC(C)C[C@@H]1NC(=O)CN(C)C(=O)CCC(=O)NCCCC[C@@H](C(=O)N[C@@H](CCCNC(=N)N)C(N)=O)NC(=O)[C@H](Cc2ccccc2)NC(=O)[C@H](Cc2ccccc2)NC(=O)[C@H](C(C)C)NC1=O", "target": "APP monomer", "assay": "amyloid aggregation, inhibitor, fluorescence", "setting": "40 µM, pH 7.4", "endpoint": "inhibition", "result": "76.1%"}
{"SMILES": "N#C/C(=C\\c1ccc2cc(N3CCCCC3)ccc2c1)C(=O)OCC(O)CO (stereo not shown)", "target": "APP Aβ42 aggregates", "assay": "fluorescence", "setting": "free probe, 5% DMSO in water", "endpoint": "emission maximum", "result": "545 nm"}
{"note": "Repeated from above:"}
{"SMILES": "COCCOCCOCCOC(=O)/C(C#N)=C/c1ccc2cc(N3CCOCC3)ccc2c1", "target": "APP Aβ42 aggregates", "assay": "fluorescence", "setting": "added: aggregated Abeta42 5 µM", "endpoint": "emission maximum", "result": "525 nm"}
{"SMILES": "CC[C@H](C)[C@H](NC(=O)[C@@H](Cc1ccccc1)NC(=O)[C@@H](N)C(C)C)C(=O)N[C@@H](C)C(N)=O", "target": "APP", "assay": "amyloid aggregation, inhibitor, fluorescence", "setting": "10 µM, 24 h", "endpoint": "inhibition", "result": "62.5%"}
